# Assay results pooled from the literature.
# Numbers after ± are the reported error.
# NR1I2: Nuclear receptor subfamily 1 group I member 2 (NR1I2, Homo sapiens, UniProt O75469)
# UniProt O75469, sequence (whole entry, looked up): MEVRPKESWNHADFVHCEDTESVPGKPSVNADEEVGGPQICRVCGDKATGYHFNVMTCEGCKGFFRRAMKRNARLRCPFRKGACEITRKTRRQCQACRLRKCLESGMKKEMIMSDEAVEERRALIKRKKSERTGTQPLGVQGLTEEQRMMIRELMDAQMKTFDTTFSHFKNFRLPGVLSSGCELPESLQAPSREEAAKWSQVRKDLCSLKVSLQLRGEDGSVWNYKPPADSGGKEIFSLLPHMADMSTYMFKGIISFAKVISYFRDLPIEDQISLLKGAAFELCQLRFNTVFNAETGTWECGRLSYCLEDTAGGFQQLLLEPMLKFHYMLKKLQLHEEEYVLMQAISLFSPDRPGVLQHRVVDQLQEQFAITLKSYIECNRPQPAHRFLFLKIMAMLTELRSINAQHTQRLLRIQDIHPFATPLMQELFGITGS
# SLC22A2: Solute carrier family 22 member 2 (SLC22A2, Homo sapiens, UniProt O15244)
# UniProt O15244, sequence (whole entry, looked up): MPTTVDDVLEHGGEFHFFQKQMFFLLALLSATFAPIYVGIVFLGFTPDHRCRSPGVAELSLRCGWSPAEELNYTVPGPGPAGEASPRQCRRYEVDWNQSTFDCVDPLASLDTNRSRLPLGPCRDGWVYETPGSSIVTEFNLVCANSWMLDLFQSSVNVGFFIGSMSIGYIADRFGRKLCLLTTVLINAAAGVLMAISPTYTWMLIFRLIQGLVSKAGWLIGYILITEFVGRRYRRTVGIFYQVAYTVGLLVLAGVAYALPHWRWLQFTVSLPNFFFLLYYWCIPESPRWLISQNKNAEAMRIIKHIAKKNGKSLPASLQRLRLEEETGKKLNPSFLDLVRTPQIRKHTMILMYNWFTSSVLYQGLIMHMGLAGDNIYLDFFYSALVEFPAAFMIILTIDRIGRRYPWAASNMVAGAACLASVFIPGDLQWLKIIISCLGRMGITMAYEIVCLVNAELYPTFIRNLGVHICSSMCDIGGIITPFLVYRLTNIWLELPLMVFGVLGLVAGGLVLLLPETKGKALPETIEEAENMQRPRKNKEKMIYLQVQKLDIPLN
# UniProt P08183, sequence (whole entry, looked up): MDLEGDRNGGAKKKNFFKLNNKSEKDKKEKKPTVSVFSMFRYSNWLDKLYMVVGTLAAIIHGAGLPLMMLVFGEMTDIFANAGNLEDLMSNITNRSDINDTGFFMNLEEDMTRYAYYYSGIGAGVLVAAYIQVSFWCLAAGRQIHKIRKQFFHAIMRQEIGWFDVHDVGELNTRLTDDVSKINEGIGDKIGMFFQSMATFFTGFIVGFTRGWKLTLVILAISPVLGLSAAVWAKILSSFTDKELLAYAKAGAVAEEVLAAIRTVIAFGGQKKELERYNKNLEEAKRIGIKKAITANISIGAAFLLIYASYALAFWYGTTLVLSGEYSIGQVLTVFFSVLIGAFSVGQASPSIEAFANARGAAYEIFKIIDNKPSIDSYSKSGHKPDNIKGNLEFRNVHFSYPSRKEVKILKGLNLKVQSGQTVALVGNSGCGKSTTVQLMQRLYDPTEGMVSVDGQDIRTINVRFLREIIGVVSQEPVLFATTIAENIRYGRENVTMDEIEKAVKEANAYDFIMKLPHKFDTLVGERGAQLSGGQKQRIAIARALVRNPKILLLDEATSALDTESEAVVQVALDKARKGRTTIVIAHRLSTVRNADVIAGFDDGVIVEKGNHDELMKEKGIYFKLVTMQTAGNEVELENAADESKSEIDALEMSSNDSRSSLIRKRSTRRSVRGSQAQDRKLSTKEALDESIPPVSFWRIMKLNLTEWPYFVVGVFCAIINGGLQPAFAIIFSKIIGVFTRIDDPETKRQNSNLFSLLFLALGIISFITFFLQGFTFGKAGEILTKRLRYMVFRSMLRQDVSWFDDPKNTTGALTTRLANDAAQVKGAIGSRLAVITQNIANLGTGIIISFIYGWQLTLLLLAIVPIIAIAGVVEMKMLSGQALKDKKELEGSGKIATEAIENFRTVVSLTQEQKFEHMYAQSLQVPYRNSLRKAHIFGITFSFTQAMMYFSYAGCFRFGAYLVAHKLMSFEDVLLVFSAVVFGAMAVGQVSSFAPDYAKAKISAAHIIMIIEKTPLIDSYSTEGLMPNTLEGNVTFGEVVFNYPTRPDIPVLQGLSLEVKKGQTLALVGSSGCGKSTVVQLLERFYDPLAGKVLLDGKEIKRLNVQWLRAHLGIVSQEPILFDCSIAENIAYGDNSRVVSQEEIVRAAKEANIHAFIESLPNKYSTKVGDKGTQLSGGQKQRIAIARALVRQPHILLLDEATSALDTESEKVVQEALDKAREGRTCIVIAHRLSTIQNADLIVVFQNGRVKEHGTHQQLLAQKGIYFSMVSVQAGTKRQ
# UniProt P07724, sequence (whole entry, looked up): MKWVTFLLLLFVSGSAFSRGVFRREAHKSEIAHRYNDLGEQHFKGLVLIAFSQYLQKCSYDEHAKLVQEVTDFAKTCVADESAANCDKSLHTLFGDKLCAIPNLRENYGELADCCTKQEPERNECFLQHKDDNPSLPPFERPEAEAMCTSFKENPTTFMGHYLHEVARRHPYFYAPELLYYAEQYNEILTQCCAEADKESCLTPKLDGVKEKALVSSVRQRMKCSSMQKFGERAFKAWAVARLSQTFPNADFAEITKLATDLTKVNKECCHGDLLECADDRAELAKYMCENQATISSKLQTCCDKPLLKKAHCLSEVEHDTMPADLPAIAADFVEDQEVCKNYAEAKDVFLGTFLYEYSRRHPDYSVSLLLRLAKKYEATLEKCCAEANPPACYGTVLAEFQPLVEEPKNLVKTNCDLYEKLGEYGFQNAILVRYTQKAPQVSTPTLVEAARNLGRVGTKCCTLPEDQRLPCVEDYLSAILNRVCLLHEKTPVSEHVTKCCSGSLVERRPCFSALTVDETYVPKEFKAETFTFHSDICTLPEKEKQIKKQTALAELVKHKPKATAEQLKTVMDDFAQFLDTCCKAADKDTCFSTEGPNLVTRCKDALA
Structure (SMILES),target,assay,test system,conditions,how to read,quantity,value
O=C1c2ccccc2C(=O)C1C(=O)C(c1ccccc1)c1ccccc1,NR1I2,,,concentration not given,,activity,inactive
CC[C@H](C)[C@H](NC(=O)[C@H](CCCCN)NC(=O)[C@H](CCCCN)NC(=O)CNC(=O)[C@H](CCCCN)NC(=O)[C@H](CC(C)C)NC(=O)[C@H](CCCCN)NC(=O)[C@H](CCCNC(=N)N)NC(=O)[C@@H](NC(=O)[C@H](CC(C)C)NC(=O)[C@H](CCCNC(=N)N)NC(=O)[C@@H](N)CCCNC(=N)N)[C@@H](C)CC)C(=O)N[C@@H](Cc1ccc(O)cc1)C(=O)N[C@@H](CC(C)C)C(=O)N[C@@H](Cc1ccc(O)cc1)C(=O)N[C@@H](Cc1ccccc1)C(=O)N[C@@H](CCCCN)C(=O)N[C@@H](CC(C)C)C(=O)N[C@@H](CCC(N)=O)C(=O)N[C@@H](CC(C)C)C(=O)N[C@@H](CC(C)C)C(=O)N[C@@H](CCCCN)C(=O)N[C@@H](CCCCN)C(N)=O,"Chymotrypsinogen A (Bos taurus, UniProt P00766)","substrate, HPLC",,"150 µM, pH 7.4, 37 °C, added: chymotrypsin 0.1 µg/mL",,time to near-complete degradation,18 to 20 h
Clc1ccc(Cl)c(-c2ccccc2Cl)c1,NR1I2,"agonist, reporter gene","LS180 cells, transiently transfected",concentration not given,relative to: rifampicin response,PXR activation,> 50%
CCOc1ccc(-c2nc3ccc(-c4nc5ccc(N6CCN(C)CC6)cc5[nH]4)cc3[nH]2)cc1,"Albumin (Mus musculus, UniProt P07724)","binding, fluorescence titration",PBS,1 h,,Kd,4 ± 7 µM
CCCC[C@H]1C(=O)N(C)[C@@H](CCCC)C(=O)N[C@@H](CCCCNC(=O)CN2CCN(CC(=O)O)CCN(CC(=O)O)CC2)C(=O)N[C@H](C(=O)NCC(N)=O)CSCC(=O)N[C@@H](Cc2ccc(O)cc2)C(=O)N(C)[C@@H](C)C(=O)N[C@@H](CC(N)=O)C(=O)N2CCC[C@H]2C(=O)N[C@@H](Cc2c[nH]cn2)C(=O)N[C@@H](CCC(=O)O)C(=O)N2C[C@H](O)C[C@H]2C(=O)N[C@@H](Cc2c[nH]c3ccccc23)C(=O)N[C@@H](CO)C(=O)N[C@@H](Cc2cn(CC(=O)O)c3ccccc23)C(=O)N1C [gallium-68 labelled],"CD274 (Homo sapiens, UniProt Q9NZQ7)",PET,"humanised NOG-EXL mice, U-87 MG xenograft","day D7 after antibody, added: anti-PD-L1 antibody 10 mg/kg",,tumour uptake,1.7 %ID/g
O=C1c2ccccc2C(=O)C1C(=O)C(c1ccccc1)c1ccc(Cl)cc1 (centres unmarked),NR1I2,,,concentration not given,,activity,inactive
NC(=O)c1ncn([C@@H]2O[C@H](CO)[C@@H](O)[C@H]2O)n1,SLC22A2,"transport, inhibitor",transiently transfected cells,"100 µM, 10 (unit not given), added: metformin",,inhibition,-8.2%
CC1(C)C(/C=C(\Cl)C(F)(F)F)C1C(=O)OC(C#N)c1cccc(Oc2ccccc2)c1 (centres unmarked),human CYP2C19,IVIVE from expressed enzymes,"human, liver, in vivo scaled",age-specific,,enzyme contribution to CLint,0.49%
CC(C)CC(=O)OC[C@H]1O[C@@](C#N)(c2ccc3c(N)ncnn23)[C@H](O)[C@@H]1O,"ABCB1 (Homo sapiens, UniProt P08183)",basolateral to apical transport,Caco-2,"9 µM, 2 h, added: verapamil 100 µM",,recovery,76.6%
O=C1CCC(N2C(=O)c3ccccc3C2=O)C(=O)N1 (centres unmarked),SLC22A2,"transport, inhibitor",transiently transfected cells,"100 µM, 10 (unit not given), added: metformin",,inhibition,17.6%
OC[C@H]1O[C@@H](Oc2cc3c(O)cc(O)cc3[o+]c2-c2cc(O)c(O)c(O)c2)[C@H](O)[C@@H](O)[C@@H]1O,"Albumin (ALB, Homo sapiens, UniProt P02768)","binding, fluorescence quenching",,"pH 7, 40 °C, HSA 2 µM",,Kd,23.2 ± 2.73 µM
